Experimental data gathered from unrelated publications.
Each line is one published result; not all experiments were run side by side. Values joined by “and” are separate records of one study, mostly repeats; a detail may differ. ± marks the error that the study gave.

| SMILES | target or system | assay | test system | conditions | how to read | quantity | result |
| --- | --- | --- | --- | --- | --- | --- | --- |
| O=c1ccn([C@@H]2O[C@](F)(CO)[C@@H](O)[C@H]2O)c(=O)[nH]1 | Mammarenavirus lassaense | viral replication | HeLa, clade IV Josiah |  |  | EC50 | 1 µM |
| COc1cc(NC(=O)Nc2cccc(CNC(=O)O[C@H]3CCOC3)c2)ccc1-c1cnco1 | Monkeypox virus | viral replication | replication-deficient | 10 µM, 60 h |  | inhibition | 99.9% |
| CC(C)C[C@@H]1NC(=O)[C@H](Cc2c[nH]cn2)NC(=O)[C@H](CCCCN)NC(=O)[C@@H]2CSSC[C@H](NC(=O)[C@@H](N)[C@@H](C)O)C(=O)N[C@@H](CCCNC(=N)N)C(=O)N[C@@H](Cc3ccc(O)cc3)C(=O)N[C@@H](CC(C)C)C(=O)N[C@@H](Cc3ccccc3)C(=O)NCC(=O)NCC(=O)N[C@H]3CSSC[C@H](NC(=O)[C@H](C)NC1=O)C(=O)N[C@@H](CCCNC(=N)N)C(=O)N[C@@H](CO)C(=O)N[C@@H](CC(=O)O)C(=O)NCC(=O)N[C@@H](CCCCN)C(=O)N[C@@H](Cc1ccc(O)cc1)C(=O)N[C@H](C(=O)N[C@@H](C)C(=O)N[C@@H](Cc1c[nH]c4ccccc14)C(=O)N[C@@H](CC(=O)O)C(=O)NCC(=O)N[C@H](C(=O)N[C@@H](Cc1ccccc1)C(=O)O)[C@@H](C)O)CSSC[C@H](NC(=O)[C@H](CC(=O)O)NC(=O)[C@H](C)NC(=O)[C@H]([C@@H](C)O)NC(=O)[C@H]([C@@H](C)O)NC(=O)[C@H](CCCCN)NC3=O)C(=O)N2 |  | Trp fluorescence titration | POPC:POPG LUVs | pH 7, 2 µM toxin |  | mole fraction partition coefficient | 3.4e+06 ± 600000 |
| CCOP(=O)(OCC)Oc1ccc([N+](=O)[O-])cc1 | SH-SY5Y | neurite outgrowth, inhibitor |  | 24 h, nominal concentration |  | EC10 | 190 µM |
| CC(C)C[C@@H]1NC(=O)[C@H](Cc2c[nH]cn2)NC(=O)[C@H](CCCCN)NC(=O)[C@@H]2CSSC[C@H](NC(=O)[C@@H](N)[C@@H](C)O)C(=O)N[C@@H](CCCNC(=N)N)C(=O)N[C@@H](Cc3ccc(O)cc3)C(=O)N[C@@H](CC(C)C)C(=O)N[C@@H](Cc3ccccc3)C(=O)NCC(=O)NCC(=O)N[C@H]3CSSC[C@H](NC(=O)[C@H](C)NC1=O)C(=O)N[C@@H](CCCNC(=N)N)C(=O)N[C@@H](CO)C(=O)N[C@@H](C)C(=O)NCC(=O)N[C@@H](CCCCN)C(=O)N[C@@H](Cc1ccc(O)cc1)C(=O)N[C@H](C(=O)N[C@@H](C)C(=O)N[C@@H](Cc1c[nH]c4ccccc14)C(=O)N[C@@H](CC(=O)O)C(=O)NCC(=O)N[C@H](C(=O)N[C@@H](Cc1ccccc1)C(=O)O)[C@@H](C)O)CSSC[C@H](NC(=O)[C@H](CC(=O)O)NC(=O)[C@H](C)NC(=O)[C@H]([C@@H](C)O)NC(=O)[C@H]([C@@H](C)O)NC(=O)[C@H](CCCCN)NC3=O)C(=O)N2 |  | Trp fluorescence titration | POPC:POPG LUVs | pH 7, 2 µM toxin |  | mole fraction partition coefficient | 1e+07 ± 300000 |
| N#C/C(=C\Nc1cc(C(F)(F)F)cc(C(F)(F)F)c1)S(=O)(=O)Cc1ccc(Cl)cc1 | MERS-CoV spike VSV pseudovirus | pseudovirus entry |  | 10 µM |  | inhibition | 57% |
| COc1cc2ncnc(Nc3cccc(Cl)c3)c2cc1OC | Monkeypox virus | viral infection | replication-deficient | 33.33 µM | relative to: untreated | infection | 0.05% and 0.022% and 0.04% |
| CC(C)[C@H]1C(=O)O[C@H](C(C)C)C(=O)N(C)[C@@H](C(C)C)C(=O)O[C@H](C(C)C)C(=O)N(C)[C@@H](C(C)C)C(=O)O[C@H](C(C)C)C(=O)N1C |  | LC-MS/MS | CB-17 scid/scid mice, muscle | intraperitoneal, 5 mg/kg, 24 h after last dose, daily dosing |  | tissue concentration | 0.12 ± 0.03 µg/kg |

For quick reference, copied from above:
| SMILES | target or system | assay | test system | conditions | how to read | quantity | result |
| --- | --- | --- | --- | --- | --- | --- | --- |
| CCOP(=O)(OCC)Oc1ccc([N+](=O)[O-])cc1 | SH-SY5Y | neurite outgrowth, inhibitor |  | 24 h, nominal concentration |  | EC10 | 190 µM |
